Results collected from several papers.
Each line is one published result; not all experiments were run side by side. ± gives the spread as reported.
Cell line: HT-29

Compound	assay	test system	setting	scale	measurement	result
COc1c(C)c(OC(=O)c2ccccc2)c(C)c(O)c1C(=O)/C=C/c1ccccc1	SRB			relative to: normal over HT-29 IC50	selectivity index	> 1.54
CCOC(=O)CSc1nc(-c2ccc(Cl)cc2)c2c(NC(=O)c3ccccc3)nnc-2[nH]1	SRB		10 µM, NCI60 single-dose screen, colon cancer	relative to: untreated	cell growth	109%
C#C[C@@]1(O)[C@@H](CO)O[C@@H](n2cc(F)c3c(N)ncnc32)[C@@H]1O	SRB		NCI-60 screen		TGI	> 100 µM
CN1CCN(c2ccc3[nH]c(-c4ccc5[nH]c(-c6ccc(C(F)(F)F)cc6)nc5c4)nc3c2)CC1	SRB		10 µM, 48 h		growth percent	29.2%
COc1c(C)c(OC(=O)c2ccc(C)cc2)c(C)c(O)c1C(=O)/C=C/c1ccccc1	SRB			relative to: normal over HT-29 IC50	selectivity index	0.95
[Cl-].c1csc([I+]c2cccs2)c1			10 µM, 1 h	relative to: control	extracellular H2O2 production	20 ± 2%
Nc1nc(=O)n([C@H]2C[C@H](O)[C@@H](CO)O2)cc1CSCCCC[C@H](N)C(=O)O	nLC-MS		10 µM, 96 h	relative to: untreated	genomic 5-methylcytosine level	2.5 fold
C#C[C@@]1(O)[C@@H](CO)O[C@@H](n2cc(Br)c3c(N)ncnc32)[C@@H]1O	SRB		NCI-60 screen		TGI	> 100 µM
O=C(Nc1nnc2[nH]c(=S)[nH]c(-c3ccc(Cl)cc3)c1-2)c1ccccc1	SRB		10 µM, NCI60 single-dose screen, colon cancer	relative to: untreated	cell growth	105%
CCN(CC)c1ccc(C=NNC(=O)CSc2nc3ccccc3c(=O)n2Cc2ccc(S(N)(=O)=O)cc2)c(O)c1	NCI five-dose screen				TGI	> 100 µM
CCCN1CCN(c2ccc3[nH]c(-c4ccc5[nH]c(-c6ccc(OCC)c(OCC)c6)nc5c4)nc3c2)CC1	SRB		10 µM, 48 h		growth percent	-31.4%
CCn1cc(-c2cc(Cn3ccnc3)cc3c2CCN([C@H](c2cc(OC)ccn2)C2CC2)C3=O)c(C(F)(F)F)n1	cell growth, inhibitor		120 h		EC50	> 30 µM
COc1ccc(OC)c(-c2nc3ccc(-c4nc5ccc(N6CCN(C)CC6)cc5[nH]4)cc3[nH]2)c1	SRB		10 µM, 48 h		growth percent	76.7%
O=C1NCCc2[nH]c(-c3ccncc3)cc21	MTS	colon cancer			IC50	5.04 µM
CCCCN1CCN(c2ccc3nc(-c4ccc5nc(-c6cc(OC)ccc6OC)[nH]c5c4)[nH]c3c2)CC1	SRB		10 µM, 48 h		growth percent	91.6%
CCCCCCCC(=O)Oc1c(C)c(O)c(C(=O)/C=C/c2ccccc2)c(OC)c1C	SRB			relative to: normal over HT-29 IC50	selectivity index	0.95
O=C(Nc1nnc2n3c(=S)[nH][nH]c3nc(-c3ccc(Cl)cc3)c1-2)c1ccccc1	SRB		10 µM, NCI60 single-dose screen, colon cancer	relative to: untreated	cell growth	117%
CCCN1CCN(c2ccc3[nH]c(-c4ccc5[nH]c(-c6cc(OC)c(OC)c(OC)c6)nc5c4)nc3c2)CC1	SRB		10 µM, 48 h		growth percent	58%
S=C([S][Au-][P+](CCCCCC[P+]([Au-][S]C(=S)n1cccn1)(c1ccccc1)c1ccccc1)(c1ccccc1)c1ccccc1)n1cccn1	cell growth, NCI-60 screen		colon cancer		log10 TGI	> -4
CSc1nc(-c2ccc(Cl)cc2)c2c(NC(=O)c3ccccc3)nnc-2[nH]1	SRB		10 µM, NCI60 single-dose screen, colon cancer	relative to: untreated	cell growth	112%
COc1cnc2cccc(N3CCc4c(cc(Cn5ccnc5C)cc4-c4cn(C)nc4C(F)(F)F)C3=O)c2c1	cell growth, inhibitor		120 h		EC50	31.3 µM
c1ccc([I+]c2ccccc2)cc1	cell growth, trypan blue count		48 h		IC50	~5.8 µM
COc1cccc(OC)c1-c1cc(C(=O)NC2(C(=O)O)C3CC4CC(C3)CC2C4)nn1-c1ccc(C(=O)N(C)CCCN(C)CCCN(C)C(=O)CN2CCN(CC(=O)[O-])CCN(CC(=O)[O-])CCN(CC(=O)[O-])CC2)cc1C(C)C.[177Lu+3] (stereo not drawn)			concentration not given, 240 min, 37 °C	relative to: added	surface-bound activity	1.4 ± 0.04%
CCCCCC(=O)Oc1c(C)c(O)c(C(=O)/C=C/c2ccccc2)c(OC)c1C	SRB			relative to: normal over HT-29 IC50	selectivity index	0.88
O=C(Nc1nnc2n3c(nc(-c4ccc(Cl)cc4)c1-2)SCC3=O)c1ccccc1	SRB		10 µM, NCI60 single-dose screen, colon cancer	relative to: untreated	cell growth	99.8%
C=CCOc1c(C)c(O)c(C(=O)/C=C/c2ccccc2)c(OC)c1C	SRB			relative to: normal over HT-29 IC50	selectivity index	0.91
CCCCN1CCN(c2ccc3[nH]c(-c4ccc5[nH]c(-c6ccc(OCC)cc6)nc5c4)nc3c2)CC1	SRB		10 µM, 48 h		growth percent	21.4%

A few entries again:
Compound	assay	test system	setting	scale	measurement	result
CCOC(=O)CSc1nc(-c2ccc(Cl)cc2)c2c(NC(=O)c3ccccc3)nnc-2[nH]1	SRB		10 µM, NCI60 single-dose screen, colon cancer	relative to: untreated	cell growth	109%
O=C(Nc1nnc2n3c(=S)[nH][nH]c3nc(-c3ccc(Cl)cc3)c1-2)c1ccccc1	SRB		10 µM, NCI60 single-dose screen, colon cancer	relative to: untreated	cell growth	117%
